Published values of several laboratories.
Compare with care: the assays were run in different laboratories.
Cell line: THP-1

| Structure (SMILES) | assay | setting | endpoint | value |
| --- | --- | --- | --- | --- |
| CCOc1cncc(-c2ccc(NC(=O)C3(c4ccnc(NS(=O)(=O)C5CC5)n4)CCOCC3)nc2)n1 | cell proliferation, CellTiter-Glo | 72 h | IC50 | 44 nM |
| CCN(C(=O)c1cc(F)ccc1Oc1nncnc1N1CCC2(C1)CN([C@H](CCCN(C)CCOC)C(C)C)C2)C(C)C | cell growth or viability | 7 days | GI50 | > 10000 nM |
| CNS(=O)(=O)Nc1nccc(Cc2c(C)c3ccc(Oc4ncccc4F)cc3oc2=O)c1F | cell viability | 7 days | IC50 | 4.31 nM |
| CC(C)c1ccc(N(C)c2ccc3c(c2)OCC[C@H]3CNc2cnccc2C(=O)O)cc1 | cell growth or viability, ATP luminescence | 7 days | IC50 | 6.15 nM |
| C/C(=N\NC(=O)c1cccc(S(=O)(=O)N2CCOCC2)c1)c1cc(Cl)ccc1O | differentiation, flow cytometry, item: CD11b | 96 h | EC50 | > 2000 nM |
| O=S(=O)(c1ccc2c(c1)OCO2)n1cc(CCCCN2CCC(=C(c3ccc(F)c(F)c3)c3ccc(F)c(F)c3)CC2)nn1 | Seahorse | concentration not given | extracellular acidification rate | increased |
| O=c1c(-c2cnn(-c3ccccc3)c2)c(C(F)(F)F)oc2c(O)c(O)ccc12 | apoptosis, annexin V flow cytometry |  | EC50 | ~14000 nM |
| CN1CC[C@@H](COc2cnc(C#N)cc2-c2ccn3nc(NC(=O)C4CC4)cc3c2)C1 | nuclear translocation, item: CRTC3 | median of experiments | EC50 | 1720 nM |

Repeated from above:
| Structure (SMILES) | assay | setting | endpoint | value |
| --- | --- | --- | --- | --- |
| O=S(=O)(c1ccc2c(c1)OCO2)n1cc(CCCCN2CCC(=C(c3ccc(F)c(F)c3)c3ccc(F)c(F)c3)CC2)nn1 | Seahorse | concentration not given | extracellular acidification rate | increased |
